{"data": "Experimental data gathered from unrelated publications", "note": "Each numbered part is a random draw from the data of one study; scales do not carry over between parts."}
{"data": "Set 1", "SMILES": "CCCOc1ccc([C@@H]2[C@@H](C(=O)O)[C@H](c3ccc4c(c3)OCO4)CN2CC(=O)Nc2c(CC)cccc2CC)cc1", "concentration": "1 µM"}
{"target": "Ankyrin repeat and protein kinase domain-containing protein 1 (ANKK1, Homo sapiens, UniProt Q8NFD2)", "test": "cell-free assay, competition with immobilised ligand", "remaining binding [%]": 73}
{"target": "Casein kinase I isoform gamma-1 (CSNK1G1, Homo sapiens, UniProt Q9HCP0)", "test": "cell-free assay, competition with immobilised ligand", "remaining binding [%]": 97}
{"target": "Fibroblast growth factor receptor 3 (FGFR3, Homo sapiens, UniProt P22607)", "test": "cell-free assay, competition with immobilised ligand", "remaining binding [%]": 100}
{"target": "Mitotic checkpoint serine/threonine-protein kinase BUB1 (BUB1, Homo sapiens, UniProt O43683)", "test": "cell-free assay, competition with immobilised ligand", "remaining binding [%]": 92}
{"target": "Serine/threonine-protein kinase tousled-like 2 (TLK2, Homo sapiens, UniProt Q86UE8)", "test": "cell-free assay, competition with immobilised ligand", "remaining binding [%]": 100}
{"target": "Glycogen synthase kinase-3 beta (GSK3B, Homo sapiens, UniProt P49841)", "test": "cell-free assay, competition with immobilised ligand", "remaining binding [%]": 100}
{"target": "Rhodopsin kinase GRK1 (GRK1, Homo sapiens, UniProt Q15835)", "test": "cell-free assay, competition with immobilised ligand", "remaining binding [%]": 100}
{"target": "Mitogen-activated protein kinase kinase kinase kinase 3 (MAP4K3, Homo sapiens, UniProt Q8IVH8)", "test": "cell-free assay, competition with immobilised ligand", "remaining binding [%]": 100}
{"target": "MAP kinase-activated protein kinase 2 (MAPKAPK2, Homo sapiens, UniProt P49137)", "test": "cell-free assay, competition with immobilised ligand", "remaining binding [%]": 100}
{"target": "LIM domain kinase 2 (LIMK2, Homo sapiens, UniProt P53671)", "test": "cell-free assay, competition with immobilised ligand", "remaining binding [%]": 64}
{"target": "Dual specificity tyrosine-phosphorylation-regulated kinase 1B (DYRK1B, Homo sapiens, UniProt Q9Y463)", "test": "cell-free assay, competition with immobilised ligand", "remaining binding [%]": 99}
{"target": "Casein kinase I isoform delta (CSNK1D, Homo sapiens, UniProt P48730)", "test": "cell-free assay, competition with immobilised ligand", "remaining binding [%]": 83}
{"target": "Mast/stem cell growth factor receptor Kit (KIT, Homo sapiens, UniProt P10721)", "test": "cell-free assay, competition with immobilised ligand", "remaining binding [%]": 90}
{"target": "Tyrosine-protein kinase ABL1, phosphorylated (ABL1, Homo sapiens, UniProt P00519, Q252H)", "test": "cell-free assay, competition with immobilised ligand", "remaining binding [%]": 99}
{"target": "Activin receptor type-1-like (ACVRL1, Homo sapiens, UniProt P37023)", "test": "binding, competition with immobilised ligand", "remaining binding [%]": 100}
{"target": "Serine/threonine-protein kinase MRCK gamma (CDC42BPG, Homo sapiens, UniProt Q6DT37)", "test": "competition binding", "remaining binding [%]": 57}
{"target": "Hepatocyte growth factor receptor (MET, Homo sapiens, UniProt P08581)", "test": "cell-free assay, competition with immobilised ligand", "remaining binding [%]": 92}
{"target": "5'-AMP-activated protein kinase catalytic subunit alpha-1 (PRKAA1, Homo sapiens, UniProt Q13131)", "test": "cell-free assay, competition with immobilised ligand", "remaining binding [%]": 96}
{"target": "Tyrosine-protein kinase Fer (FER, Homo sapiens, UniProt P16591)", "test": "cell-free assay, competition with immobilised ligand", "remaining binding [%]": 100}
{"target": "Serine/threonine-protein kinase 25 (STK25, Homo sapiens, UniProt O00506)", "test": "cell-free assay, competition with immobilised ligand", "remaining binding [%]": 100}
{"target": "Tyrosine-protein kinase Yes (YES1, Homo sapiens, UniProt P07947)", "test": "cell-free assay, competition with immobilised ligand", "remaining binding [%]": 90}
{"target": "Calcium/calmodulin-dependent protein kinase type II subunit alpha (CAMK2A, Homo sapiens, UniProt Q9UQM7)", "test": "cell-free assay, competition with immobilised ligand", "remaining binding [%]": 100}
{"data": "Set 2", "Structure (SMILES)": "CC(C)(C)c1nc(-c2cccc(NS(=O)(=O)c3c(F)cccc3F)c2F)c(-c2ccnc(N)n2)s1", "target": "Receptor-interacting serine/threonine-protein kinase 3 (RIPK3, Homo sapiens, UniProt Q9Y572)", "read-out": "kinase activity", "mode": "inhibitor", "time": "1 h"}
{"test": "ADP-Glo", "setting": "125 nM", "inhibition [%]": 92.2}
{"test": "ADP-Glo", "setting": "15.62 nM", "inhibition [%]": 59.7}
{"test": "ADP-Glo", "setting": "3.906 nM", "inhibition [%]": 37.4}
{"test": "ADP-Glo", "setting": "500 nM", "inhibition [%]": 101}
{"test": "ADP-Glo", "setting": "7.813 nM", "inhibition [%]": 44.9}
{"test": "ADP-Glo", "setting": "1.953 nM", "inhibition [%]": 32.8}
{"test": "ADP-Glo kinase", "setting": "1000 nM", "inhibition [%]": 100}
{"test": "ADP-Glo", "setting": "31.25 nM", "inhibition [%]": 69}
{"test": "ADP-Glo", "setting": "250 nM", "inhibition [%]": 96.3}
{"test": "ADP-Glo", "setting": "62.5 nM", "inhibition [%]": 74.2}
{"data": "Set 3", "sample": "hydrocarbon/water"}
{"Compound": "CC(C)C[C@@H]1NC(=O)[C@H](Cc2ccc(O)cc2)NC(=O)[C@H]2CCCN2C(=O)[C@H](CC2CCCCC2)NC(=O)[C@H](CC2CCCCC2)NC(=O)[C@@H](C)NC1=O", "logD": 0.96}
{"Compound": "CCCCCN1CC(=O)NC(CC(C)C)C(=O)N(C)C(C)C(=O)NC(C)C(=O)N2CCCC2C(=O)N(CCCOC(C)C)CC(=O)NC(CC(C)C)C(=O)N(C)C(C)C(=O)NC(CC(C)C)C(=O)N2CCCC2C1=O (centres unmarked)", "logD": 2.52}
{"Compound": "CCC[C@H]1NC(=O)CSC[C@@H](C(=O)OCC)N(C)C(=O)[C@H](CC(C)C)NC(=O)[C@@H](C)N(C)C(=O)[C@@H](CC(C)C)NC(=O)[C@H](C)N(C)C(=O)[C@@H]2CCCN2C(=O)[C@@H](CC(C)C)NC(=O)CN(CCC)C1=O", "logD": 1.05}
{"Compound": "CC(C)C[C@@H]1NC(=O)CN(Cc2ccc3c(c2)OCO3)C(=O)[C@H](C)NC(=O)[C@H](CC(C)C)N(C)C(=O)[C@H]2CCCN2C(=O)[C@H](Cc2ccccc2)NC(=O)CN(CC2CCOCC2)C(=O)[C@H](C)NC(=O)[C@H](CC(C)C)N(C)C(=O)[C@H]2CCCN2C1=O", "logD": 2.09}
{"Compound": "CCCCCN1CC(=O)N[C@@H](Cc2ccccc2)C(=O)N2CCC[C@@H]2C(=O)N(C)[C@@H](CC(C)C)C(=O)N[C@@H](C)C(=O)N(CCCOC(C)C)CC(=O)N[C@@H](CC(C)C)C(=O)N2CCC[C@@H]2C(=O)N(C)[C@@H](CC(C)C)C(=O)N[C@@H](C)C1=O", "logD": 2.96}
{"Compound": "CC[C@@H]1C(=O)N(C)[C@@H](CC2CCCCC2)C(=O)N[C@@H](CC2CCCCC2)C(=O)N2CCC[C@@H]2C(=O)N(C)[C@@H](Cc2ccc(O)cc2)C(=O)N[C@@H](CC(C)C)C(=O)N1C", "logD": 3.03}
{"Compound": "CC(C)C[C@@H]1NC(=O)[C@H](Cc2ccc(O)cc2)NC(=O)[C@H]2CCCN2C(=O)[C@H](CC2CCCCC2)NC(=O)[C@H](CC2CCCCC2)NC(=O)[C@@H](CC(C)C)NC1=O", "logD": 2}
{"Compound": "CC(C)CC1NC(=O)CN(CC2CCCCC2)C(=O)C2CCCN2C(=O)C(CC(C)C)NC(=O)C(C)N(C)C(=O)C(CC(C)C)NC(=O)CN(CCCOC(C)C)C(=O)C2CCCN2C(=O)C(C)NC(=O)C(C)N(C)C1=O (centres unmarked)", "logD": 2.92}
{"Compound": "CC(C)C[C@@H]1NC(=O)[C@H](Cc2ccccc2)NC(=O)[C@H]2CCCN2C(=O)[C@H](CC(C)C)NC(=O)[C@H](CC2CCCCC2)NC(=O)[C@@H](CC(C)C)NC1=O", "logD": 2.35}
{"Compound": "CC[C@H]1NC(=O)[C@H](CC(C)C)NC(=O)[C@H](Cc2ccc(O)cc2)NC(=O)[C@H]2CCCN2C(=O)[C@H](CC2CCCCC2)NC(=O)[C@H](CC2CCCCC2)NC1=O", "logD": 1.28}
{"Compound": "CCOC(=O)[C@@H]1CSCC(=O)N[C@@H](CC)C(=O)N(C)[C@@H](C)C(=O)N[C@H](CC(C)C)C(=O)N2CCC[C@@H]2C(=O)N(CC)CC(=O)N[C@H](CC(C)C)C(=O)N(C)[C@@H](C)C(=O)N[C@@H](CC(C)C)C(=O)N1C", "logD": 0.886}
{"data": "Set 4", "SMILES": "CN1CCN(C(=O)c2ccc(NC(=O)Nc3ccc(N(C)c4ccnc(Nc5ccc(CS(C)(=O)=O)cc5)n4)cc3)cc2)CC1", "read-out": "binding", "concentration": "1 µM"}
{"target": "TGF-beta receptor type-1 (TGFBR1, Homo sapiens, UniProt P36897)", "test": "competition with immobilised ligand", "remaining binding [%]": 88}
{"target": "cAMP-dependent protein kinase catalytic subunit beta (PRKACB, Homo sapiens, UniProt P22694)", "test": "competition with immobilised ligand", "remaining binding [%]": 100}
{"target": "Dual specificity mitogen-activated protein kinase kinase 1 (MAP2K1, Homo sapiens, UniProt Q02750)", "test": "competition with immobilised ligand", "remaining binding [%]": 33}
{"target": "Serine/threonine-protein kinase Nek5 (NEK5, Homo sapiens, UniProt Q6P3R8)", "remaining binding [%]": 82}
{"target": "Ribosomal protein S6 kinase alpha-1, C-terminal kinase domain (RPS6KA1, Homo sapiens, UniProt Q15418)", "test": "competition with immobilised ligand", "remaining binding [%]": 93}
{"target": "Serine/threonine-protein kinase PRP4 homolog (PRPF4B, Homo sapiens, UniProt Q13523)", "remaining binding [%]": 88}
{"target": "Dual specificity protein kinase TTK (TTK, Homo sapiens, UniProt P33981)", "test": "competition with immobilised ligand", "remaining binding [%]": 61}
{"target": "Dual specificity tyrosine-phosphorylation-regulated kinase 2 (DYRK2, Homo sapiens, UniProt Q92630)", "remaining binding [%]": 75}
{"target": "Serine/threonine-protein kinase D1 (PRKD1, Homo sapiens, UniProt Q15139)", "remaining binding [%]": 100}
{"target": "Protein kinase C epsilon type (PRKCE, Homo sapiens, UniProt Q02156)", "remaining binding [%]": 99}
{"target": "Serine/threonine-protein kinase 33 (STK33, Homo sapiens, UniProt Q9BYT3)", "test": "competition with immobilised ligand", "remaining binding [%]": 92}
{"target": "Mitogen-activated protein kinase kinase kinase kinase 2 (MAP4K2, Homo sapiens, UniProt Q12851)", "test": "competition with immobilised ligand", "remaining binding [%]": 43}
{"target": "Epidermal growth factor receptor (EGFR, Homo sapiens, UniProt P00533, L858R/T790M)", "remaining binding [%]": 55}
{"note": "For quick reference, copied from above (set 4):"}
{"target": "Serine/threonine-protein kinase Nek5 (NEK5, Homo sapiens, UniProt Q6P3R8)", "remaining binding [%]": 82}
{"target": "Serine/threonine-protein kinase 33 (STK33, Homo sapiens, UniProt Q9BYT3)", "test": "competition with immobilised ligand", "remaining binding [%]": 92}
{"target": "Dual specificity mitogen-activated protein kinase kinase 1 (MAP2K1, Homo sapiens, UniProt Q02750)", "test": "competition with immobilised ligand", "remaining binding [%]": 33}
{"target": "Epidermal growth factor receptor (EGFR, Homo sapiens, UniProt P00533, L858R/T790M)", "remaining binding [%]": 55}
{"target": "Mitogen-activated protein kinase kinase kinase kinase 2 (MAP4K2, Homo sapiens, UniProt Q12851)", "test": "competition with immobilised ligand", "remaining binding [%]": 43}
